Values quoted from earlier work as cited in several papers.
Each line is one published result; not all experiments were run side by side.

Structure (SMILES)	tested on	assay	system	conditions	quantity	result
CC[C@H]1OC(=O)[C@H](C)[C@@H](O[C@H]2C[C@@](C)(OC)[C@@H](O)[C@H](C)O2)[C@H](C)[C@@H](O[C@@H]2O[C@H](C)C[C@H](N(C)C)[C@H]2O)[C@](C)(OC)C[C@@H](C)C(=O)[C@H](C)[C@@H](O)[C@]1(C)O				Simcyp library default value	logP	1.7
O=c1c(-c2ccc(O)cc2)coc2cc(O)cc(O)c12					logP	2.84
O=C(CCCCCCC(=O)Nc1ccccc1)NO					logP	1.04
O=c1c(O[C@@H]2O[C@H](CO)[C@H](O)[C@H](O)[C@H]2O)c(-c2ccc(O)c(O)c2)oc2cc(O)cc(O)c12					logP	0.4
C#C[C@]1(O)CC[C@H]2[C@@H]3CCc4cc(O)ccc4[C@H]3CC[C@@]21C					logP	3.67
CC(=O)O[C@H]1C(=O)[C@@]2(C)[C@H]([C@H](OC(=O)c3ccccc3)[C@]3(O)C[C@H](OC(=O)[C@H](O)[C@@H](NC(=O)c4ccccc4)c4ccccc4)C(C)=C1C3(C)C)[C@]1(OC(C)=O)CO[C@@H]1C[C@@H]2O					logP	3.3
CC(C)(C)NCC(O)c1cc(O)cc(O)c1 (stereo not drawn)			octanol/water		logP	-0.08
O=C(OCc1ccccc1)c1ccc(O)cc1		octanol-water			logP	3.56
CN(C)[C@@H]1C(O)=C(C(N)=O)C(=O)[C@@]2(O)C(O)=C3C(=O)c4c(O)cccc4[C@@](C)(O)[C@H]3[C@H](O)[C@@H]12					logP	-2.13
O=c1[nH]c(=O)n([C@@H]2O[C@H](CO)[C@@H](O)[C@@H]2F)cc1CCCCC[18F]			1-octanol/0.1 M NaH2PO4	pH 7.47	logP	0.74
O=C(Nc1cccc2c(=O)cc(-c3nnn[nH]3)oc12)c1ccc(OCCCCc2ccccc2)cc1					logP	4.2
CC1(C)S[C@@H]2[C@H](NC(=O)Cc3ccccc3)C(=O)N2[C@H]1C(=O)O					logP	1.72
O=C1Nc2ccc(Cl)cc2[C@@](C#CC2CC2)(C(F)(F)F)O1				Simcyp input parameter	logP	4.01
CC(C)(C)OC(=O)c1ccc(O)cc1		octanol-water			logP	3.12
O=c1[nH]c(=O)n([C@H]2C[C@H](O)[C@@H](CO)O2)cc1CCCCC[18F]			1-octanol/0.1 M NaH2PO4	pH 7.47	logP	0.23
CCCCCCCCOC(=O)c1ccc(O)cc1		octanol-water			logP	5.13
O=C(O)c1ccccc1O					logP	2.12
C=CC(=O)N1C[C@H](Nc2ncnc3[nH]ccc23)CC[C@@H]1C					logP	1.55
CCCCCOC(=O)c1ccc(O)cc1		octanol-water			logP	3.72
COC(=O)[C@H](c1ccccc1Cl)N1CCc2sccc2C1					logP	3.23
COc1ccc(Cl)cc1C(=O)NCCc1ccc(S(=O)(=O)NC(=O)NC2CCCCC2)cc1					logP	4.8
Nc1cc(C(F)(F)F)c(-c2nc(N3CCOCC3)nc(N3CCOCC3)n2)cn1	SR				GI50	289 nM
O=c1[nH]c(=O)n([C@@H]2O[C@H](CO)[C@@H](O)[C@@H]2F)cc1CCCC[18F]			1-octanol/0.1 M NaH2PO4	pH 7.47	logP	0.27
O=C(O)c1ccc(O)cc1		octanol-water			logP	1.58
O=C1Nc2ccc(Cl)cc2[C@@](C#CC2CC2)(C(F)(F)F)O1					logP	3.44
CS(=O)(=O)c1ccc([C@@H](O)[C@@H](CO)NC(=O)C(Cl)Cl)cc1					logP	-0.19
C#C[C@]1(OC(C)=O)CC[C@H]2[C@@H]3CCC4=CC(=NO)CC[C@@H]4[C@H]3CC[C@@]21CC (mixture of isomers)					logP	5.28

A few entries again:
Structure (SMILES)	tested on	assay	system	conditions	quantity	result
CC(=O)O[C@H]1C(=O)[C@@]2(C)[C@H]([C@H](OC(=O)c3ccccc3)[C@]3(O)C[C@H](OC(=O)[C@H](O)[C@@H](NC(=O)c4ccccc4)c4ccccc4)C(C)=C1C3(C)C)[C@]1(OC(C)=O)CO[C@@H]1C[C@@H]2O					logP	3.3
CC(C)(C)NCC(O)c1cc(O)cc(O)c1 (stereo not drawn)			octanol/water		logP	-0.08
O=C(OCc1ccccc1)c1ccc(O)cc1		octanol-water			logP	3.56
CN(C)[C@@H]1C(O)=C(C(N)=O)C(=O)[C@@]2(O)C(O)=C3C(=O)c4c(O)cccc4[C@@](C)(O)[C@H]3[C@H](O)[C@@H]12					logP	-2.13
